Published values from different studies.
Protocols differ between the studies behind these lines. Several values in a cell are separate wells, animals, samples, runs or records. ± marks the error that the study gave. Values after ≈ are worked out from the molar mass of the structure shown.

Structure (SMILES) | organism | test | test system | setting | scale | endpoint | result
N=C(N)c1ccc(OCc2cc(COc3ccc(C(=N)N)cc3)cc(-c3ccccc3)c2)cc1 | Escherichia coli | checkerboard | mcr-2 polymyxin-resistant | unit not given, added: rifampicin | lower = stronger synergy | FICI | 0.047
CC1=CC(=O)CC(C)(C)[C@@]1(O)/C=C/C(C)=C\C(=O)O | Arabidopsis thaliana |  | pyl3/7/9/11/12 mutant, seeds | 1 µM |  | number of germinated seeds | 11 and 8 and 7
O=C(N1CCc2ccccc21)n1ccnn1 | Arabidopsis thaliana |  | wild type, seedlings | 100 µM, continuous red light, added: 0.3 µM karrikin KAR2 |  | hypocotyl length | 1.01 mm
Cc1c(CN(C)C(=O)/C=C/c2cnc3c(c2)CC(NC(=O)OC(C)(C)C)C(=O)N3)oc2ccccc12 (stereo not drawn) | Acinetobacter baumannii | broth microdilution | AR-0278 |  |  | MIC | > 32 µg/mL
CCOC(=O)/C=C/[C@H](C[C@@H]1CCNC1=O)NC(=O)[C@@H](CC(=O)[C@@H](NC(=O)c1cc(C)on1)C(C)C)Cc1ccc(F)cc1 | Rhinovirus C | high-throughput screen | RV-C15a-mGL | 10 µM |  | viral replication | inhibited
CC(C)n1ncc2c(C(=O)NCC3(C)CNC3)cc(C3CC3)nc21 | coxsackievirus B3 | CPE | Vero | 0.015 µM |  | cell protection | -0.0343% and 0.0343%
C=C[C@]1(C)C[C@@H](OC(=O)CSCCN(CC)CC)[C@]2(C)[C@H](C)CC[C@]3(CCC(=O)[C@H]32)[C@@H](C)[C@@H]1O | Mycoplasma gallisepticum |  | infected chickens, lung | intramuscular, 40 mg/kg |  | lung mycoplasma count | 3.69 log10 CFU/mL and 3.34 log10 CFU/mL and 2 log10 CFU/mL and 3.78 log10 CFU/mL and 3.74 log10 CFU/mL and 3.73 log10 CFU/mL
C=C[C@]1(C)C[C@@H](OC(=O)CS[C@@H]2C[C@H]3CC[C@@H](C2)N3C)[C@]2(C)[C@H](C)CC[C@]3(CCC(=O)[C@H]32)[C@@H](C)[C@@H]1O | Streptococcus agalactiae |  | 25 clinical isolates |  |  | MIC50 | 0.0312 µg/mL
C[C@@H](O)[C@H]1C(=O)N2C(C(=O)O)=C(SCCN=CN)C[C@H]12 | Acinetobacter baumannii |  | 0403, female ICR mice, peritonitis, heart | dose not given |  | bacterial load | 3 log CFU and 2.22 log CFU and 3.48 log CFU and 2.52 log CFU
Nc1nc(-c2ccccc2)nc2[nH]nc(Nc3ccc(C(F)(F)F)cc3)c12 | coxsackievirus B3 |  | 31-1-93, NMRI mice, CVB3 chronic myocarditis | oral, 100 mg/kg twice daily, day 13, dosed days 0 to 6, score scale 0 to 7 | direction not given | clinical score | 0
CN1CCN(CCNCc2cc3ccccc3nc2SCc2ccccc2)CC1 | Acinetobacter baumannii | NADH-driven proton pumping, ACMA quenching | inverted membrane vesicles | 32 µg/mL |  | inhibition | 85%
Cc1cc(OC(C)C)ccc1C(=O)C(C)(C)NC(=O)c1sccc1C | Passalora | mycelial growth | PSA medium | 20 °C, suspension concentrate 400 g/L |  | EC50 | 0.66 µg/mL
CO[C@H]1/C=C/O[C@@]2(C)Oc3c(C)c(O)c4c(c3C2=O)C2=NC3(CCN(CC(C)C)CC3)NC2=C(NC(=O)/C(C)=C\C=C\[C@H](C)[C@H](O)[C@@H](C)[C@@H](O)[C@@H](C)[C@H](OC(C)=O)[C@@H]1C)C4=O | Mycobacteroides abscessus | intracellular growth, Hill fit | THP-1 derived macrophages, ATCC 19977 |  |  | IC50 | 685 nM
Cc1nc(NCCCNc2ccnc3cc(Cl)ccc23)nc(-c2cccc([N+](=O)[O-])c2)c1C(=O)OC(C)C | feline herpesvirus | viral replication | CRFK |  |  | EC50 | > 4000 nM
O=c1c(-c2nc3ccccc3s2)cc2c(n1NS(=O)(=O)c1ccccc1)CCCC2 | Human alphaherpesvirus 1 | viral replication, plaque reduction | Vero cells | non-toxic concentration |  | reduction | 40%
CN1CCN(CCNCc2cc3cc(-c4ccccc4)ccc3nc2SCc2ccccc2)CC1 | Acinetobacter baumannii | NADH-driven proton pumping, ACMA quenching | inverted membrane vesicles | 32 µg/mL |  | inhibition | 95%
CC1(C)S[C@@H]2[C@H](NC(=O)[C@H](N)c3ccccc3)C(=O)N2[C@H]1C(=O)O | Enterococcus faecium | agar dilution | vancomycin-intermediate | 25 isolates |  | MIC90 | > 128 µg/mL
CCc1nc2[nH]c(=O)n(O)c(=O)c2s1 | Echinochloa crus-galli | glasshouse pot |  | 750 g/ha, 21 days, pre-emergence |  | inhibition | 15.7%
Cc1ccc(CCC(=O)Nc2nnc(S(N)(=O)=O)s2)cc1 | Enterococcus faecium |  | NR-31937 |  |  | MIC | 0.383 µM
CC(=O)NC[C@H]1CN(c2ccc(N3CCOCC3)c(F)c2)C(=O)O1 | Staphylococcus |  | MRSE-37, mouse systemic infection | intravenous | survival | ED50 | 13.4 mg/kg

Structure (SMILES) | organism | test | test system | setting | scale | endpoint | result
COC[C@H]1O[C@@H]2O[C@H]3[C@H](OC)[C@@H](OC)[C@@H](O[C@H]4[C@H](OC)[C@@H](OC)[C@@H](O[C@H]5[C@H](OC)[C@@H](OC)[C@@H](O[C@H]6[C@H](OC)[C@@H](OC)[C@@H](O[C@H]7[C@H](OC)[C@@H](OC)[C@@H](O[C@H]8[C@H](OC)[C@@H](OC)[C@@H](O[C@H]1[C@H](OC)[C@H]2OC)O[C@@H]8COC)O[C@@H]7COC)O[C@@H]6COC)O[C@@H]5COC)O[C@@H]4COC)O[C@@H]3COC | Escherichia coli | LuxR reporter, antagonist | DH5α sensor strain | 100 µM, added: OHHL 200 nM |  | inhibition | 1%
CC(=O)NC[C@H]1CN(c2ccc(N3CCOCC3)c(F)c2)C(=O)O1 | Enterococcus faecium |  | NR-31970 |  |  | MIC | 2.96 µM
CN[C@H](CC(C)C)C(=O)N[C@H]1C(=O)N[C@@H](CC(N)=O)C(=O)N[C@H]2C(=O)N[C@H]3C(=O)N[C@H](C(=O)N[C@H](C(=O)O)c4cc(O)cc(O)c4-c4cc3ccc4O)[C@H](O)c3ccc(c(Cl)c3)Oc3cc2cc(c3O[C@@H]2O[C@H](CO)[C@@H](O)[C@H](O)[C@H]2O[C@H]2C[C@](C)(N)[C@H](O)[C@H](C)O2)Oc2ccc(cc2Cl)[C@H]1O | Streptococcus pyogenes |  | ATCC 19615 | 1 strain |  | MBC range | 1 µg/mL (≈ 0.69 µM)
COC[C@H]1O[C@@H]2O[C@@H]3[C@@H](OC)[C@@H](OC)[C@@H](O[C@@H]4[C@@H](OC)[C@@H](OC)[C@@H](O[C@@H]5[C@@H](OC)[C@@H](OC)[C@@H](O[C@@H]6[C@@H](OC)[C@@H](OC)[C@@H](O[C@@H]7[C@@H](OC)[C@@H](OC)[C@@H](O[C@@H]1[C@@H](OC)[C@H]2OC)O[C@@H]7COC)O[C@@H]6COC)O[C@@H]5COC)O[C@@H]4COC)O[C@@H]3COC | Escherichia coli | LuxR reporter, antagonist | DH5α sensor strain | 4 µM, added: OHHL 200 nM |  | inhibition | 1 ± 1%
CN[C@H](CC(C)C)C(=O)N[C@H]1C(=O)N[C@@H](CC(N)=O)C(=O)N[C@H]2C(=O)N[C@H]3C(=O)N[C@H](C(=O)N[C@H](C(=O)O)c4cc(O)cc(O)c4-c4cc3ccc4O)[C@H](O)c3ccc(c(Cl)c3)Oc3cc2cc(c3O[C@@H]2O[C@H](CO)[C@@H](O)[C@H](O)[C@H]2O[C@H]2C[C@](C)(N)[C@H](O)[C@H](C)O2)Oc2ccc(cc2Cl)[C@H]1O | Streptococcus pneumoniae |  | penicillin-resistant, 10 isolates | pH 5.5 |  | MIC50 | 0.5 µg/mL
COC(=O)N[C@H](C(=O)N1CCC[C@H]1c1ncc(-c2ccc(-c3ccc(-c4cnc([C@@H]5CCCN5C(=O)[C@@H](NC(=O)OC)C(C)C)[nH]4)cc3)cc2)[nH]1)C(C)C | Human alphaherpesvirus 1 | multi-cycle viral growth | Vero |  |  | EC50 | > 11000 nM
O=c1[nH]c2ncsc2c(=O)n1O | Echinochloa crus-galli | glasshouse pot |  | 750 g/ha, 21 days, pre-emergence |  | inhibition | 0%
COc1cc2c(cc1C(=O)Nc1ccc(C(C)(C)C)cc1)CCCCC2 | Dengue virus 2 | viral replication | HEK293 |  |  | EC90 | 600 nM
C[C@@H]1[C@H](O)[C@@H](C)/C=C/C=C/C=C/C=C/C=C/C=C/C=C/[C@H](O[C@@H]2O[C@H](C)[C@@H](O)[C@H](N)[C@@H]2O)C[C@@H]2O[C@](O)(C[C@@H](O)C[C@@H](O)[C@H](O)CC[C@@H](O)C[C@@H](O)CC(=O)O[C@H]1C)C[C@H](O)[C@H]2C(=O)O | Aspergillus fumigatus |  | Af 293 | 1 × MIC, 12 h |  | viable cell reduction | 40 to 45%
CCOC(=O)c1c(C)nc(NCCCCNc2ccnc3cc(Cl)ccc23)nc1C | feline herpesvirus | viral replication | CRFK |  |  | EC50 | > 4000 nM
CC1=CC(=O)CC(C)(C)[C@@]1(O)/C=C/C(C)=C\C(=O)O | Arabidopsis thaliana | DAB staining | wild type, rosette leaves | 1 µM, 2 h | higher = more H2O2 | H2O2 staining intensity | 249 a.u. and 295 a.u. and 279 a.u. and 313 a.u. and 280 a.u. and 223 a.u. and 107 a.u. and 224 a.u.
COC(=O)[C@H](Cc1ccc(O)cc1)NCc1cc2ccccc2nc1SC | Pseudomonas aeruginosa |  |  | 128 µg/mL, added: pentamidine 50 µM | reference: control | growth | 80.4%
Cc1c2c(nn1C)CSCc1cc(n(C)n1)CSc1cc(c3ccccc3c1)OCCCc1c(C(=O)O)n(C)c3c-2c(Cl)ccc13 | Staphylococcus aureus | broth microdilution | clinical isolates |  |  | MIC50 | 12.5 µM
CC(=O)N1CCC(C(=O)N2CCN3C(=O)c4cc(-c5ccccc5)ccc4NC(=O)C3C2)CC1 (stereo not drawn) | Caenorhabditis elegans |  | N2 | 50 µM |  | median lifespan | 27 days
CC1=C[C@H](O/C=C2/C(=O)O[C@@H]3c4ccccc4C[C@H]23)OC1=O (racemic) | Arabidopsis thaliana |  | kai2-2 mutant, seedlings | 1 µM |  | hypocotyl length | 3.39 mm
COC(=O)[C@@H](CCSC)NCc1cc2ccccc2nc1SC | Pseudomonas aeruginosa |  |  | 4 µg/mL, added: pentamidine 100 µM | reference: control | growth | 98%
CC(=O)Oc1ccccc1C(=O)Nc1ncc([N+](=O)[O-])s1 | Cryptosporidium parvum |  | HCT-8 | EC50, 6 h | reference: DMSO control | parasite number | 73.3% and 86.4% and 95.6% and 73.8%
COC(=O)[C@H](Cc1c[nH]c2ccccc12)NCc1cc2ccccc2nc1OC | Pseudomonas aeruginosa |  |  | 32 µg/mL, added: pentamidine 50 µM | reference: control | growth | 83.3%
N=C(N)c1ccc(OCCCCCOc2ccc(C(=N)N)cc2)cc1 | Escherichia coli | outer membrane permeabilization | BW25113 | 60 min, added: NPN 0.01 mM |  | concentration for maximal NPN uptake | 3.1 µg/mL

Excerpt of the above:
Structure (SMILES) | organism | test | test system | setting | scale | endpoint | result
Cc1c2c(nn1C)CSCc1cc(n(C)n1)CSc1cc(c3ccccc3c1)OCCCc1c(C(=O)O)n(C)c3c-2c(Cl)ccc13 | Staphylococcus aureus | broth microdilution | clinical isolates |  |  | MIC50 | 12.5 µM
CC(=O)N1CCC(C(=O)N2CCN3C(=O)c4cc(-c5ccccc5)ccc4NC(=O)C3C2)CC1 (stereo not drawn) | Caenorhabditis elegans |  | N2 | 50 µM |  | median lifespan | 27 days
CC1=C[C@H](O/C=C2/C(=O)O[C@@H]3c4ccccc4C[C@H]23)OC1=O (racemic) | Arabidopsis thaliana |  | kai2-2 mutant, seedlings | 1 µM |  | hypocotyl length | 3.39 mm
COC(=O)[C@@H](CCSC)NCc1cc2ccccc2nc1SC | Pseudomonas aeruginosa |  |  | 4 µg/mL, added: pentamidine 100 µM | reference: control | growth | 98%
CC(=O)Oc1ccccc1C(=O)Nc1ncc([N+](=O)[O-])s1 | Cryptosporidium parvum |  | HCT-8 | EC50, 6 h | reference: DMSO control | parasite number | 73.3% and 86.4% and 95.6% and 73.8%
